Measurements gathered from unrelated publications.

SMILES | target or system | assay | test system | setting | endpoint | result
C=C[C@@]1(C)C=C2CC[C@@H]3[C@](C)(CCC[C@@]3(C)C(=O)O)[C@H]2CC1 | Helicobacter pylori | microbial growth, broth dilution | – | 125 µg/mL | inhibition | 100%
Cc1cc(C)c(C#N)c(SCC(=O)c2cccc(N)c2)n1 | Leishmania infantum | parasite growth | mouse Macrophage | intracellular, amastigote | EC50 | > 64 µM
CC(=NNC(N)=S)c1ccc(Nc2nnc(-c3ccc(Cl)cc3)c3ccccc23)cc1 | HepG2 | cell growth or viability, MTT | – | 0.156 µM | cell death | 53.5%
CN(O)N=Nc1ccc(S(=O)(=O)Nc2nccs2)cc1 | – | DPPH scavenging, absorbance | – | 240 µg/mL | inhibition | 28.4%
S=C(Nc1ccccc1)Nc1ccc(Oc2nnc(-c3ccc(Cl)cc3)c3ccccc23)cc1 | HepG2 | cell growth or viability, MTT | – | 2.5 µM | cell death | 82%
COc1cc([C@H]2OC[C@H]3[C@@H]2CO[C@@H]3c2cc(OC)c(O)c(OC)c2)cc(OC)c1O | Helicobacter pylori | microbial growth, broth dilution | – | 0.48 µg/mL | inhibition | 79.3%
CCCCCC(=O)Nc1ccc(-c2ccc3ncn(CC4CC4)c(=O)c3c2)cn1 | NCI-H1975 | cell growth or viability, CCK-8 | – | 72 h | IC50 | 1.68 µM
Cc1cccc(N(O)N=Nc2ccc(S(=O)(=O)Nc3onc(C)c3C)cc2)c1 | – | DPPH scavenging, absorbance | – | 180 µg/mL | inhibition | 28.9%
COc1ccnc(SCC(=O)c2ccccc2)c1C#N | Leishmania infantum | parasite growth | mouse Macrophage | intracellular, amastigote | EC50 | 51 µM
Cc1ccc(N(O)N=Nc2ccc(S(=O)(=O)Nc3onc(C)c3C)cc2)cc1 | – | DPPH scavenging, absorbance | – | 60 µg/mL | inhibition | 7.69%
CC(=NNC(=O)c1ccccc1Br)c1ccc(Nc2nnc(-c3ccc(Cl)cc3)c3ccccc23)cc1 | HepG2 | cell growth or viability, MTT | – | 2.5 µM, 24 h | viability | 4.16%
Cc1cc(C)c(C#N)c(OCC(=O)c2ccccc2)n1 | Trypanosoma brucei | parasite growth, resazurin | RHODESIENSE | – | EC50 | 53.6 µM
CCCN(O)N=Nc1ccc(S(=O)(=O)Nc2cc(C)on2)cc1 | – | DPPH scavenging, absorbance | – | 240 µg/mL | inhibition | 23.9%
CC(=NNC(=S)Nc1ccccc1)c1ccc(Nc2nnc(-c3ccc(Cl)cc3)c3ccccc23)cc1 | HepG2 | cell growth or viability, MTT | – | 2.5 µM | cell death | 77.5%
CC[C@H]1OC(=O)[C@H](C)[C@@H](O[C@H]2C[C@@](C)(OC)[C@@H](O)[C@H](C)O2)[C@H](C)[C@@H](O[C@@H]2O[C@H](C)C[C@H](N(C)C)[C@H]2O)[C@](C)(OC)C[C@@H](C)C(=O)[C@H](C)[C@@H](O)[C@]1(C)O | Helicobacter pylori | microbial growth, broth dilution | – | 0.98 µg/mL | inhibition | 92.5%
CCN(O)N=Nc1ccc(S(=O)(=O)Nc2cc(C)on2)cc1 | – | DPPH scavenging, absorbance | – | 20 µg/mL | inhibition | 12.2%
COc1cc(-c2nc3ccccc3c(=O)n2Nc2ccc([N+](=O)[O-])cc2[N+](=O)[O-])ccc1OCc1cn(CC(=O)Nc2ccc(C)cc2C)nn1 | – | DPPH scavenging, absorbance | – | 100 µM | inhibition | 27.5%
CC(=NNC(=O)c1ccccc1)c1ccc(Nc2nnc(-c3ccc(Cl)cc3)c3ccccc23)cc1 | HepG2 | cell growth or viability, MTT | – | 5 µM, 24 h | viability | 2.73%
Cc1noc(NS(=O)(=O)c2ccc(N=NN(O)c3ccccc3)cc2)c1C | – | DPPH scavenging, absorbance | – | 240 µg/mL | inhibition | 24.1%
O=C(Nc1ccc(Oc2nnc(-c3ccc(Cl)cc3)c3ccccc23)cc1)c1ccccc1 | MCF7 | cell growth or viability, MTT | – | 10 µM | cell death | 93.3%
COc1cc(-c2cc(=O)c3c(O)cc(O)cc3o2)ccc1O | Helicobacter pylori | microbial growth, broth dilution | – | 3.9 µg/mL | inhibition | 100%
CCCN(O)N=Nc1ccc(S(=O)(=O)Nc2onc(C)c2C)cc1 | – | DPPH scavenging, absorbance | – | 180 µg/mL | inhibition | 13.3%
O=C(Nc1ccccc1)Nc1ccc(Oc2nnc(-c3ccc(Cl)cc3)c3ccccc23)cc1 | HepG2 | cell growth or viability, MTT | – | 78 nM, 24 h | viability | 55.9%

Some of these lines once more:
SMILES | target or system | assay | test system | setting | endpoint | result
CCCN(O)N=Nc1ccc(S(=O)(=O)Nc2onc(C)c2C)cc1 | – | DPPH scavenging, absorbance | – | 180 µg/mL | inhibition | 13.3%
CC(=NNC(=S)Nc1ccccc1)c1ccc(Nc2nnc(-c3ccc(Cl)cc3)c3ccccc23)cc1 | HepG2 | cell growth or viability, MTT | – | 2.5 µM | cell death | 77.5%
Cc1cc(C)c(C#N)c(OCC(=O)c2ccccc2)n1 | Trypanosoma brucei | parasite growth, resazurin | RHODESIENSE | – | EC50 | 53.6 µM
